{"data": "Measurements of several laboratories", "note": "A part holds a random share of what one study measured. Positions count from the first letter of the parent shown."}
{"data": "Study 1", "target": "RNA binding protein fox-1 homolog 2, RRM domain, GST-SBP tag (RBFOX2, Homo sapiens, UniProt O43251-10, residues 100-194)", "method": "RNA Bind-n-Seq", "form": "RNA", "medium": "in vitro", "tested at": "365 nM", "notes": "natural RNA segment, single round, ends assumed", "relative to": "no-protein control", "direction": "higher = stronger binding", "shared flanks, not repeated": "GGGAGUUCUACAGUCCGACGAUC … UGGAAUUCUCGGGUGCCAA", "Residues (chain)": "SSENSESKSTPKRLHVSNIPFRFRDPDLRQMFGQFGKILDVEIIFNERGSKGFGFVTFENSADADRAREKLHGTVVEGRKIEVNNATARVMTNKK"}
{"Strand": "UUGGAAGCCUUUGAUAGUUACUGCCUACCUUCAAUGGUGAUGAUAACAUUGUGACUCUUACUCGUUUUUGUUGGUUAGCAGAGGUUCCUUUAUAGAGAAAGCCUUCCCUC", "RBNS enrichment (R)": 0.406}
{"Strand": "GUACAGUAUUGCUGCUCAUACACUGAGGAGGUGGGGUCGUCUUCUGAGGAUAUGAACUACACUGCUUGGUCACACGCUGGGAUCAGAAUCUUAAGCAGUUAUUCUUGCCA", "RBNS enrichment (R)": 5.65}
{"Strand": "UCCCAAAAUAGUUGUCAGGUUUAAUCAUCAGGCAACACUGCGUAUACCUGUGUGGCUAUCCUCAUCUGCCUGCCCUCUCAUCCCUCGGCUAGAAUGAUGUACUCUACUUU", "RBNS enrichment (R)": 0.578}
{"Strand": "CUGAAAACCUAUUUCUUCUAAAUUACAUGAUUUGGAUUGGUUUUAGGGUUUUAGGGUUGUAGGGUUUCUUUUGGAGAGGUAGGGGGCUAAUUGCUAUGUUCUCAUGGAUA", "RBNS enrichment (R)": 0.586}
{"Strand": "GGCGAGCAGCGGGCAGACCUCCAAGGACAGCCUCUAGCUGAGGUCUCAGUCACAUGAAGUGUGACACUGAACAGGUAGAAAGCACUGAAAAUCGUGUUCCAAGAGCACUU", "RBNS enrichment (R)": 0.698}
{"Strand": "UUGAGUUUGUUUUACCAGAUGCUCAGCUUGCUAACACACUUGAGAUCAGACCAUACUCUGAGCAGACAUGGAAAGGAUUGCUUUGUGAAGACCAGGGGGAGUCAGGUGGU", "RBNS enrichment (R)": 2.35}
{"Strand": "AAAUGAUAAUAUUGUGUAUUAAGACAUUCCUUAAUUAGGACAAAAUGGCUGCUGUAUAUUUACUAUAUGGAGUUCUGAGUUAAAUACCAUCCUUAAUACUGGGAACAGAA", "RBNS enrichment (R)": 0.484}
{"Strand": "GUGUUGUUGUUGCCUUACAGAGGACUACAAGUAUAAAGCAAAUAGCUGUUUUAAAAUUAUGUAAAUAAGUCACAGGCUAGUUAUUUGAAAACUCUAAGUCACUUUAAUUU", "RBNS enrichment (R)": 0.348}
{"data": "Study 2", "target": "CCNA1, cyclin fold, Cln2 fusion (human)", "method": "yeast growth competition, sequencing", "medium": "yeast", "notes": "weak parent motif", "relative to": "not given", "direction": "higher = stronger binding", "starting sequence": "DBF4B docking peptide (human); LGYLYLLLTQSLW; partner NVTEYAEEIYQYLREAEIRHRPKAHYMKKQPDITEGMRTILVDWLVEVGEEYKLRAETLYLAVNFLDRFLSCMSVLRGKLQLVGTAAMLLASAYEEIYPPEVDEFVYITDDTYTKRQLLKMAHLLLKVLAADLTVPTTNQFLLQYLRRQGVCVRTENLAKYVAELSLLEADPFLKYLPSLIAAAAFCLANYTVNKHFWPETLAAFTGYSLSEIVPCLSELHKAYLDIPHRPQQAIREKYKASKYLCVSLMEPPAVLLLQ"}
{"Variant": "Y5A", "normalised enrichment score": -0.0308}
{"Variant": "L7A", "normalised enrichment score": -0.891}
{"Variant": "G2A", "normalised enrichment score": -0.22}
{"Variant": "L6A", "normalised enrichment score": -0.376}
{"Variant": "L4A", "normalised enrichment score": -0.117}
{"Variant": "Q10A", "normalised enrichment score": 0.241}
{"Variant": "T9A", "normalised enrichment score": 0.217}
{"data": "Study 3", "target": "Fragile X messenger ribonucleoprotein 1, C-terminal low-complexity region (Fmr1, Mus musculus, UniProt P35922)", "method": "RNA Bind-n-Seq", "form": "RNA", "medium": "in vitro", "tested at": "200 nM", "notes": "whole 134-nt RNA, ends assumed", "added": "150 mM LiCl", "relative to": "input library", "direction": "higher = stronger binding", "each molecule": "7-deaza-guanosine replaces G", "shared flanks, not repeated": "GGGAGUUCUACAGUCCGACGAUC … UGGAAUUCUCGGGUGUCAAGG"}
{"Strand": "CUCAAGUCCUGUGCUACACAUCGUAUGUACCGAAUCGGGAAAGGGUGGGAGGGAAAGUAUUAUGUUACGCCGUUCGGAUCUGCACUUCCA", "log2 enrichment": -0.351}
{"Strand": "UUGGGUUCAAUAUACGGAGAGUGCCCUGUGCCAAAGCCACGAGUUGAUCGUCCAAGAAAAGUUCCUGUGAUACAAGAGGAGAGGGCAAUG", "log2 enrichment": -1.82}
{"Strand": "CUGUGCUACACAUCGUAUGUACCGAAUCGGCCCCCCCGGGGCCCCCCCGGGCCCCCCCGGGGAAAGUAUUAUGUUACGCCGUUCGGAUCU", "log2 enrichment": -2.49}
{"Strand": "UGGCCCUGGUGGCAUGCGGGGAGGAAGAGGUGGCCUCAUGGAUCGUGGUGGUCCCGGUGGAAUGUUCAGAGGUGGCCGUGGUGGAGACCG", "log2 enrichment": -0.69}
{"Strand": "GUGAAUCAAAAACUCUGGUUUUAAGCAACCUCUCCUACAGUGCAACAGAAGAAACUCUUCAGGAAGUAUUUGAGAAAGCAACUUUUAUCA", "log2 enrichment": 1.82}
{"Strand": "UCCUCAAGUCCUGUGCUACACAUCGUAUGUACCGAAUCGGAAAGGAGGAGGAAAGUAUUAUGUUACGCCGUUCGGAUCUGCACUUCCAGC", "log2 enrichment": -2.27}
{"Strand": "CACAGACAACACGCACCCACACAGACAGAGAGGGAAGGGGUUGGGAUGGGGACAGGGUGCACAGCAGGGCGGGGUAGGACCCCAGCCCCU", "log2 enrichment": 0.567}
{"Strand": "AAGUCCUGUGCUACACAUCGUAUGUACCGAAUCGGAAAAGGAAAAGGGAAAAGGGGAAAGUAUUAUGUUACGCCGUUCGGAUCUGCACUU", "log2 enrichment": -0.558}
{"data": "Study 4", "target": "PABPC1L2, full length, GST fusion (mouse, UniProt A0ABA7IW68)", "method": "RNAcompete", "form": "RNA", "medium": "in vitro", "tested at": "20 nM", "notes": "7-mer, probes averaged, single round", "relative to": "mean of 7-mers", "direction": "higher = stronger binding", "Construct (chain)": "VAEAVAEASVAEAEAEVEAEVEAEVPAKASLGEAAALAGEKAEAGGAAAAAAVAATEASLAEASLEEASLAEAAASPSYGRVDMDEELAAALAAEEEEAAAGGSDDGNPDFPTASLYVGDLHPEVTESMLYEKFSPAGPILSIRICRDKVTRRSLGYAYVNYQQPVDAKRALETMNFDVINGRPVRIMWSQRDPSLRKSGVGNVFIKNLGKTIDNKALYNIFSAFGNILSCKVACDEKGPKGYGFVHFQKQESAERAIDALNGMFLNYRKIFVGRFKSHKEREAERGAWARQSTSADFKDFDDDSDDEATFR"}
{"Strand": "GUCAGCC", "7-mer Z-score": -0.403}
{"Strand": "UUCGUUA", "7-mer Z-score": -0.367}
{"Strand": "GAAGCCU", "7-mer Z-score": -0.266}
{"Strand": "GGAACGU", "7-mer Z-score": -0.0337}
{"Strand": "ACUUGAG", "7-mer Z-score": -0.0482}
{"Strand": "GAGUUAC", "7-mer Z-score": -0.273}
{"Strand": "UCCCUGA", "7-mer Z-score": -0.304}
{"Strand": "AACGAUU", "7-mer Z-score": 0.0315}
{"Strand": "GAUCACA", "7-mer Z-score": -0.22}
{"Strand": "UGCAACC", "7-mer Z-score": -0.0808}
{"Strand": "AAUACUC", "7-mer Z-score": 0.0315}
{"Strand": "GCGAAUU", "7-mer Z-score": -0.13}
{"Strand": "CACAAGG", "7-mer Z-score": 0.000733}
{"Strand": "UCAACGC", "7-mer Z-score": -0.15}
{"Strand": "GUAAGAU", "7-mer Z-score": -0.128}
{"Strand": "CAAGAGC", "7-mer Z-score": 0.128}
{"Strand": "UGAACGA", "7-mer Z-score": -0.0409}
{"Strand": "GUUCCUA", "7-mer Z-score": -0.161}
{"Strand": "CUUCGGG", "7-mer Z-score": -0.177}
{"Strand": "UAAUCAG", "7-mer Z-score": -0.208}
{"Strand": "AAUACAC", "7-mer Z-score": 0.254}
